{"data": "Assay results gathered from unrelated publications", "note": "Each numbered part is a random draw from the data of one study; scales do not carry over between parts. ± marks the error that the study gave."}
{"data": "Set 1", "organism": "VSVΔG with SARS-CoV-2 spike", "read-out": "pseudovirus infection", "strain": "Wuhan variant", "concentration": "10 µM"}
{"SMILES": "Cc1ccc(/C(C#N)=C2\\C=CC(=NO)C(Cl)=C2)cc1", "inhibition": "46%"}
{"SMILES": "O=C(NC1CCN(Cc2ccccc2)CC1)c1cc2c(=O)n(Cc3ccccc3)ccc2s1", "inhibition": "38%"}
{"SMILES": "c1cc(OCCn2ccnc2)cc(-c2ccnc3[nH]ccc23)c1", "inhibition": "45%"}
{"SMILES": "CC(=O)c1cc2cc3c4c(c2oc1=O)CCCN4CCC3", "inhibition": "75%"}
{"SMILES": "Clc1cc2c(c3ncccc13)OCN(C1CCCC1)C2", "inhibition": "65%"}
{"SMILES": "c1ccc(Nc2nccc(-c3cccnc3)n2)cc1", "inhibition": "41%"}
{"SMILES": "CCOC(=O)c1cc(C#N)c(Sc2nnc(SC)s2)nc1C(F)(F)F", "inhibition": "41%"}
{"SMILES": "Cc1nc(Sc2nnc(-c3ccccc3)n2C)c2sc(=S)n(-c3ccccc3)c2n1", "inhibition": "43%"}
{"data": "Single results of other studies", "rep nsp14": "Replicase polyprotein 1ab, nsp14 (rep, Severe acute respiratory syndrome coronavirus 2, UniProt P0DTD1)"}
{"Structure (SMILES)": "CCC(CC)COC(=O)[C@H](C)N[P@](=O)(OC[C@H]1O[C@@](C#N)(c2ccc3c(N)ncnn23)[C@H](O)[C@@H]1O)Oc1ccccc1", "target or system": "SARS-CoV-2", "assay": "viral replication", "test system": "Vero, Alpha", "endpoint": "EC50", "value": "200 ± 200 nM"}
{"Structure (SMILES)": "CCCCCCC#Cc1cncc(-c2nnc(SCc3cc([N+](=O)[O-])cc([N+](=O)[O-])c3)n2C)c1", "target or system": "Mycobacterium tuberculosis", "test system": "Erdman cydA mutant", "endpoint": "IC50", "value": "0.31 ± 0.017 µM"}
{"Structure (SMILES)": "CCc1cc(=O)c2c(O)c3ccoc3c(OC)c2o1", "target or system": "Mycobacterium tuberculosis", "assay": "Alamar blue", "test system": "22/22, SIRE and linezolid resistant", "setting": "21 days, 37 °C", "endpoint": "MIC", "value": "128 µg/mL"}
{"Structure (SMILES)": "N#C[C@@]1(n2ccc(N)nc2=O)O[C@H](CO)[C@@H](O)[C@H]1O", "target or system": "SARS-CoV-2", "assay": "viral replication", "test system": "Vero, Gamma", "endpoint": "EC90", "value": "6.4 ± 0.03 µM"}
{"Structure (SMILES)": "O=C(NC1CCN(c2ncnc3[nH]cnc23)CC1)c1cccc(S(=O)(=O)N2CCC2)c1", "target or system": "rep nsp14", "assay": "NSP14 enzyme activity, inhibitor", "setting": "12.5 µM", "endpoint": "inhibition", "value": "82.5%"}
{"Structure (SMILES)": "CCCCCCC#Cc1cncc(-c2nnc(SCc3ccc(Cl)cc3)n2C)c1", "target or system": "Mycobacterium tuberculosis", "test system": "Erdman cydA mutant", "endpoint": "IC50", "value": "5.8 ± 0.612 µM"}
{"Structure (SMILES)": "CCc1cc(=O)c2c(OCC(O)CNC(C)(C)C)c3ccoc3c(OC)c2o1 (stereo not shown)", "target or system": "Mycobacterium tuberculosis", "assay": "Alamar blue", "test system": "22/22, SIRE and linezolid resistant", "setting": "21 days, 37 °C", "endpoint": "MIC", "value": "32 µg/mL"}
{"Structure (SMILES)": "O=C(NC1CCN(c2ncnc3[nH]cnc23)CC1)c1cccc(S(=O)(=O)N2CCCCC2)c1", "target or system": "rep nsp14", "assay": "NSP14 enzyme activity, inhibitor", "setting": "0.01221 µM", "endpoint": "inhibition", "value": "5.01%"}
{"note": "Some of these lines once more (set 1):"}
{"SMILES": "Cc1ccc(/C(C#N)=C2\\C=CC(=NO)C(Cl)=C2)cc1", "inhibition": "46%"}
{"SMILES": "O=C(NC1CCN(Cc2ccccc2)CC1)c1cc2c(=O)n(Cc3ccccc3)ccc2s1", "inhibition": "38%"}
{"SMILES": "c1cc(OCCn2ccnc2)cc(-c2ccnc3[nH]ccc23)c1", "inhibition": "45%"}
